Experimental data pooled from the literature.
± gives the spread as reported.
Sequence of UniProt Q9UQM7 (whole entry, looked up): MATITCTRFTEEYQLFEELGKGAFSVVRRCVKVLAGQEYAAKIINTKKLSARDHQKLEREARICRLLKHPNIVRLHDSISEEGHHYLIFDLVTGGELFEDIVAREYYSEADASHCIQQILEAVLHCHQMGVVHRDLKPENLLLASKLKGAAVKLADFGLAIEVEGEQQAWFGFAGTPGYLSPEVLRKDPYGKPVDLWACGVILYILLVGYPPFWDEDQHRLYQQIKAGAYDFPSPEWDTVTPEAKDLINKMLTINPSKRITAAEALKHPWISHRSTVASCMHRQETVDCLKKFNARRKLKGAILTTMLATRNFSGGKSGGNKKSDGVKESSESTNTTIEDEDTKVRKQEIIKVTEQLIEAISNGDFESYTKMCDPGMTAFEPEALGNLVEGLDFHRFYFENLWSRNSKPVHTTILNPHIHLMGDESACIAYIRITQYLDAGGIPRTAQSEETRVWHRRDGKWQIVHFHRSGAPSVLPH

Structure (SMILES)	tested on	test	test system	setting	how to read	measurement	value
CCCC[C@H](NC(=O)CCCCCCCNC(=O)CN1CCN(CC(=O)O)CCN(CC(=O)O)CC1)C(=O)N[C@H]1CC(=O)NCCCC[C@@H](C(N)=O)NC(=O)[C@H](Cc2c[nH]c3ccccc23)NC(=O)[C@H](CCCNC(=N)N)NC(=O)[C@@H](Cc2ccccc2)NC(=O)[C@H](Cc2c[nH]cn2)NC1=O [technetium-99m labelled]			C57 mouse, lung	intravenous, 0.037 MBq, 4 h		tissue uptake	0.1 ± 0.06 %ID/g
O=C(c1ccc(-c2ccccc2)cc1)N1CCCCC1		metabolic stability	human, liver microsomes	2 µM, 7 min, pH 7.4		compound remaining	100%
COc1ccc(CN2CCC(F)(F)C(COc3ccc(F)c(F)c3)C2)cc1F (stereo not shown)		equilibrium dialysis	human plasma			fu	< 0.0003
Cc1nn(-c2cccc(N)c2)c(=O)c2cnc(Nc3ccc(N4CCNCC4)cc3)nc12	CAMK2A (Homo sapiens, UniProt Q9UQM7)	SelectScreen kinase				IC50	> 10 µM
C/C(N)=N/C(=N\S(=O)(=O)c1ccc(C(F)(F)F)cc1)N1C[C@H](c2ccccc2)C(c2ccc(Cl)cc2)=N1			dog		baseline: in vivo over in vitro CLint	empirical scaling factor	29
C=CC(=O)Nc1cc(Nc2nccc(-c3cn(C)c4ccccc34)n2)c(OC)cc1N(C)CCNC			human, plasma	270 ng/mL, 2 h, -80 °C, high QC level		remaining compound	100%
O=C1c2sc(-c3ccc(N4CCC(CO)CC4)nc3F)nc2CCN1c1cccnc1		LC-MS	cynomolgus monkey hepatocytes	5 µM, 60 min		parent share of total peak area	57.3%
COc1cnc2cccc(N3CCc4c(cc(Cn5ccnc5)cc4-c4cn(C)nc4C(F)(F)F)C3=O)c2c1			CD-1 mouse, male, plasma	oral, 10 mg/kg		AUC extrapolated	0.8%
COC1CN([C@H]2CC[C@H]([C@@]3(C)Oc4c(Cl)cc(C(=O)NCc5c(SC)cc(C)[nH]c5=O)c(C)c4O3)CC2)C1		RNA-seq, item: KREMEN1 mouse homolog	mouse, HT-1376 xenograft, whole blood	dose not given	baseline: vehicle	log2 fold change	0.2
CC(C)C[C@H](NC(=O)[C@@H](CCCCNC(=O)[C@@H](Cc1ccccc1)NC(=O)CCCCCNC(=O)CN1CCN(CC(=O)O)CCN(CC(=O)O)CCN(CC(=O)O)CC1)NC(=O)[C@H](Cc1ccc(O)cc1)NC(=O)[C@H](CO)NC(=O)[C@H](Cc1c[nH]c2ccccc12)NC(=O)[C@H](Cc1c[nH]cn1)NC(=O)[C@@H]1CCC(=O)N1)C(=O)N[C@@H](CCCNC(=N)N)C(=O)N1CCC[C@H]1C(=O)NCC(N)=O [indium-111 labelled]			female athymic nude mice, liver	intravenous, 0.037 MBq, 1 h		tissue uptake	0.62 ± 0.1 %ID/g
O=C(Nc1cnccc1-c1ccc([18F])cc1)c1ccnc(NC(=O)C2CC2)c1		ex vivo gamma counting	GSK-3β transgenic mice, early-stage, left kidney	intravenous, 120 min		mean SUV	0.28
CCN(CC)c1ccc2c(c1)O[B-]1(c3ccccc3)OC(=O)C(c3ccccc3)=N[N+]1=C2C(C)C (stereo not shown)			toluene			fluorescence lifetime	2.22 ns
CN(C)C(=O)CNC(=O)c1ccc([C@H]2[C@@H](F)[C@@H](F)C[C@@H](F)[C@H]2F)cc1		liver microsome stability	mouse liver microsomes	1 µM		hepatic clearance	0.84 L/h/kg
CCCCCCCOc1ccc(CC[C@](N)(CO)COP(=O)(O)O)cc1C(F)(F)F			healthy men, plasma	oral, 0.125 mg once daily, day 1, fed state		AUCτ	4.52 ng·h/mL
CN1CCC(c2ccc(-c3ccc([C@H]4[C@@H](F)[C@@H](F)C[C@@H](F)[C@H]4F)cc3)cn2)CC1		liver microsome stability	dog liver microsomes	1 µM		hepatic clearance	1.68 L/h/kg
COc1cccc(OC)c1-c1cc(C(=O)NC2(C(=O)O)C3CC4CC(C3)CC2C4)nn1-c1ccc(C(=O)N(C)CCOCCOCCN(C)C(=O)[C@H](CCCCNC(=O)[C@H](CC(C)C)NC(=O)C2OC2C(=O)O)NC(=O)CN2CCN(CC(=O)[O-])CCN(CC(=O)[O-])CCN(CC(=O)[O-])CC2)cc1C(C)C.[177Lu+3] (mixture of isomers)			mouse HT-29 xenograft, large intestine	4 h post injection, biodistribution		tissue uptake	1.2 %ID/g
COC(=O)[C@@]1(C)C=C(C(=O)Nc2cccc(C(=O)Nc3ccc(Nc4nccc(-c5cccnc5)n4)c(C)c3)c2)C(=O)CC1			Wistar rat, male, plasma	1 µM, 120 min		compound remaining	2.4%
O=C(Nc1ccc([C@H]2[C@@H](F)[C@@H](F)C[C@@H](F)[C@H]2F)cc1)C1(N2CCOCC2)CC1		liver microsome stability	dog liver microsomes	1 µM		hepatic clearance	0.468 L/h/kg
C=C1CC[C@H](OCCCNC(=O)CCOCCOCCOCCOCCOCCOCCOCCOCCOCCOCCOCCOCCOCCOCCOCCOCCOCCOCCOCCOCCOCCOCCOCCOCCOCCOCCOCCOCCOCCOCCOCCOCCOCCOCCOCCOCCNC(=O)CCN2C(=O)CC(SC[C@H](NC(=O)[C@H](Cc3ccccc3)NC(=O)[C@H](CC(N)=O)NC(=O)[C@H](Cc3c[nH]cn3)NC(=O)[C@@H](NC(=O)[C@H](CC(=O)O)NC(=O)[C@H](CCC(N)=O)NC(=O)[C@H](CC(C)C)NC(=O)[C@H](CCCCN)NC(=O)[C@H](CCCCN)NC(=O)[C@H](CCCNC(=N)N)NC(=O)[C@H](CC(C)C)NC(=O)[C@H](Cc3c[nH]c4ccccc34)NC(=O)[C@H](CCC(=O)O)NC(=O)[C@@H](NC(=O)[C@H](CCCNC(=N)N)NC(=O)[C@H](CCC(=O)O)NC(=O)[C@H](CCSC)NC(=O)[C@H](CO)NC(=O)[C@H](CC(N)=O)NC(=O)[C@H](CC(C)C)NC(=O)[C@H](Cc3c[nH]cn3)NC(=O)[C@H](CCCCN)NC(=O)CNC(=O)[C@H](CC(C)C)NC(=O)[C@H](CC(N)=O)NC(=O)[C@H](Cc3c[nH]cn3)NC(=O)[C@H](CCSC)NC(=O)[C@H](CC(C)C)NC(=O)[C@H](CCC(N)=O)NC(=O)[C@@H](NC(=O)[C@H](CCC(=O)O)NC(=O)[C@H](CO)NC(=O)[C@@H](NC(=O)[C@@H](N)CO)C(C)C)[C@@H](C)CC)C(C)C)C(C)C)C(=O)O)C2=O)C/C1=C/C=C1\CCC[C@]2(C)[C@@H]([C@H](C)CCCC(C)(C)O)CC[C@@H]12 (stereo partly shown)			male Sprague-Dawley rat, plasma	subcutaneous, 300 µg/kg, single dose		half-life	9.21 h
C=CC(=O)N1[C@@H](c2ccc3c(c2)OCO3)c2[nH]c3ccccc3c2C[C@H]1C(=O)N1CCN(C)CC1	human cyclin E1 wild type-3xFLAG:CDK2	co-IP with TMT proteomics, item: PRDX1		concentration not given, Q06830	baseline: wild type DMSO	relative co-enrichment	100%
Nc1ncc(-c2cc(-c3cnn(CC(F)(F)F)c3)ncc2F)nc1C(=O)NC1CNCC(F)C1 (stereo not shown)	WNK2	KINOMEscan		1 µM	baseline: DMSO control	remaining binding	100%
c1cc(C2CCCCC2)ccc1-c1cnc(N2CCOCC2)nc1		liver microsome stability	rat liver microsomes	1 µM		hepatic clearance	2.34 L/h/kg
C=CC(=O)Nc1cccc(Cn2ncc3cnc(Nc4cnn(CCOC)c4)nc32)c1	RIPK1 human	binding, KINOMEscan		100 nM	lower = stronger binding	percent of control	92%
Cc1ccc(-c2ccc([C@H]3[C@@H](F)[C@@H](F)C[C@@H](F)[C@H]3F)cc2)cn1		hepatocyte stability	cryopreserved mouse hepatocytes	1 µM		hepatic clearance	4.56 L/h/kg
C=C(NC(=O)c1csc(-c2nc3c(cc2O)-c2nc(cs2)C(=O)NC(C(C)O)C(=O)NC(=C(C)OC)c2nc(cs2)C(=O)NC2c4nc(cs4)C(=O)NC(COC(=O)c4c5c6c(cccc6n4O)COC(=O)C(OC4CC(C)(O)C(N(C)C)C(C)O4)C2OC5)c2nc-3cs2)n1)C(N)=O (stereo not shown)			cynomolgus monkey, both sexes, plasma	intravenous infusion, 1.5 mg/kg twice daily, 0 to 6 h, first dose		Cmax	13.3 ± 2.81 µg/mL
